# Results from different studies.
# Each numbered part is a random draw from the data of one study; scales do not carry over between parts.

# Study 1
# Target: Interferon regulatory factor 7, full length, phosphomimetic (IRF7, Homo sapiens, UniProt Q92985, residues 1-503, S471D/S472D/S475D/S476D/S477D/S483D/S484D/S487D)
# UniProt Q92985, sequence (whole entry, unmodified, looked up): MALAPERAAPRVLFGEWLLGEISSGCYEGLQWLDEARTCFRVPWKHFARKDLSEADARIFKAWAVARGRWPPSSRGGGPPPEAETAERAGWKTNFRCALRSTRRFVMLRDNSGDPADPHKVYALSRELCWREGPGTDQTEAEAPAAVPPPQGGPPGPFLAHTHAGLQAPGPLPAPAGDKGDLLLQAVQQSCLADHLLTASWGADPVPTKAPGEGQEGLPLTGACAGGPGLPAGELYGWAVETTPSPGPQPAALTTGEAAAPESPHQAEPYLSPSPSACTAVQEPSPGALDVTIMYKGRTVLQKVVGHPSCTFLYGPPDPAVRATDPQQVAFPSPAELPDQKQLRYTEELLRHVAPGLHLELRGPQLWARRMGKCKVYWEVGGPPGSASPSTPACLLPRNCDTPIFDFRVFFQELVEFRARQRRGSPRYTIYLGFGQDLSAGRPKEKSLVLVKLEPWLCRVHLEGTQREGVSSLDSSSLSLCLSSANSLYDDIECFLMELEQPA
# Method: protein-binding microarray
# Form: double-stranded DNA, one strand shown
# Matrix: in vitro
# Concentration: 2200 nM top
# Setting: 60-bp whole probe
# With: salmon DNA 0.4 mg/ml
# Relative to: random background probes
# Direction: higher = stronger binding
# Constant ends, left off below: GCCTAGCAC … GTCTTGATTCGCTTGACGCTGCTG
Strand,fitted relative affinity [z-score]
GACGGTATCAGTTTCGGGACGTGCTAG,3.97
TCAGTTTTCAGTTTCACACTGTGCTAG,6.46
TCAGGTTTCCTACTGCTTTAGTGCTAG,2.14
GACAAACTGGGGACTGGAGACGTGCTA,-0.209
GTCTCTTGTTCTCTCTGGCCGTGCTAG,1.93
GACGATTCCCTTTTCCTGACGTGCTAG,2.16
GACGGTTCCGGACTGGGGACGTGCTAG,0.102
TTAGGACTGGACTATAGGTTAGTGCTA,-0.78

# Study 2
# Target: Hepatocyte nuclear factor 3-alpha (Foxa1, Mus musculus, UniProt P35582, residues 1-468, full length assumed)
# Method: EMSA with sequencing
# Form: double-stranded DNA, one strand shown
# Matrix: in vitro
# Concentration: 10 and 20 nM
# Setting: whole designed probe, mean of two concentrations, ends assumed
# Relative to: negative control set to 0
# Direction: higher = stronger binding
# Constant ends, left off below: GTGAGCGGTGCCCATTGATGGGGAAC … TTTCACTGGGATCGTGGGGAC
# Construct (chain): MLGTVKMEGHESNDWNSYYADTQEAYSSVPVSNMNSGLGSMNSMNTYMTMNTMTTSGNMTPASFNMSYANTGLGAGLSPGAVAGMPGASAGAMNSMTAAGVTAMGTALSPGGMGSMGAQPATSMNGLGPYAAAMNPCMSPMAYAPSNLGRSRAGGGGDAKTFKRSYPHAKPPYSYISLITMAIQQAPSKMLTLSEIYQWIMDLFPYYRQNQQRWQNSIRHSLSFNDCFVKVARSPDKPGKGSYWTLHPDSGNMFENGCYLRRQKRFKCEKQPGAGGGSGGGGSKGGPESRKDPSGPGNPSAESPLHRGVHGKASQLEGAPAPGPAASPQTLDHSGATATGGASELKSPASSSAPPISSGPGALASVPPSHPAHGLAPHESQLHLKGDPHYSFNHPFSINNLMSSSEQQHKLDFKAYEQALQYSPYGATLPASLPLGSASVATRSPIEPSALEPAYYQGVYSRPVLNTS
Strand,normalised bound fraction
CCAGTGAATATATATATATATTTTCAAATTTGATTTTCCAAATGTCCCGGGAGCACATGCCCTGTTTCCTAATGAATCTCCGGGGTTCTTCAGAGTAATCTACAAAACATAGCATTCCTGCTTTGGGACTCCAGCCCTCCACCCTGGGGAGCACGTGTCTCCTTGACCATGGTCATCTCCTACTAGACCGGAG,-0.0324 ratio
CTGCAGCACTACAGCCCCTTTCTAGGACATCCCTGAAGGATGCAGTGAAGGGAAATCTTCCCAGTGGGCAGAACTTCCAGCAGTGCACCTGGTAGAGTACTTTGCATGGAAGGAGAAATAATCAAATGTGTGATTACATACTGATTCATGGGCTGCAGCCAATGGTTTGGCTGGATGGTCAGGGAGGTCATTC,-0.0385 ratio
ATCTTCCCCCTCTTCCTTGCCCCACCAGCTCACCTTCCCGGGTTATTTGCAGAAAAAAGAGCATACAGATGTAGCATTCGTTAACCCTCTTCTGGCGCAAACTGCTGTTTGCTCTGGATGAATCATGGTCCTTTGGCGACGCCAGGCTCCGGGAGAGCAAAGCACCGTGTCAGGGCCATGATCCGGGGTGGCC,0.144 ratio
ATCTTCCCCCTCTTCCTTGCCCCACCAGCTCACCTTCCCGGGTTATTTGCAGATAGGAAAATAAATAAAGCCGGGTATCCTTAACCCTCTTCTGGCGCAAACTGCTGTTTGCTCTGGATGAATCATGGTCCTTTGGCGACGCCAGGCTCCGGGAGAGCAAAGCACCGTGTCAGGGCCATGATCCGGGGTGGCC,0.352 ratio
GGAAGTCTGCAATGCTTTGAACAGCAGGGTGTGGGAGGAAGTGTTGGCCCTACTCACCCTGCCTGACCTCCCTGGGCTGAGTCGACTGAGCTCTGTTTACATAGCTGAGGGACTGGGAATGCTGGAGTGGAGGAAGGAGGTGATGAATGATTCAGGAGGACACACAACATCCCTGCTTTTCTTTCCTGCTGGC,0.416 ratio
AGTCTTTACAAATCAAAGAGACAGCACTGCTTTTGCTGAAGCGGGACAAAAATACCTCAAGGCACAACTCCTCCGTGCGCTTATCCCCTGCAGTGTAAACAGGGCCAATTCAATGGGTATTGTTTCCTTTACTTAGGCAGGATGATTTCCCTCAACTCTTAAGGAATCCAGGACTTTCCAGACCATTTCATCA,0.153 ratio
AGGGATGTAGACAGAGAGGCAGTTTGAATAATTTTGGAGTACATTTTACTTTAGTTTGAATGGGAGATGGTAAGAGGCAACTGGTTGGCTAAGTAAACAGCAAAAAATAGCTTTAGGTTCAGAGTCTTTCCTTGATTTCCTCTCAATAGCTCTGAGCATAGTCCTACCGCAATTTGTAGTATAAAAACATAAC,0.352 ratio
TCAGGTCAGAGCAGGTGACCAGGGGTGACTCAGGATGGAGCAGGTGACCAGAGGAATAGAGGTGAACTACTGATTAGAACTGGTGGAAAAGGTTGTTTACTGAAACTAGAGGCGAGGAGAACGAGGAAGCTAGACTTTAGAGCGCAAAGAACCGAGCATACTGACATACTGATTCTTTGAAGAGAAATTTAGA,0.0526 ratio

# Other studies, line by line
# T1: itself; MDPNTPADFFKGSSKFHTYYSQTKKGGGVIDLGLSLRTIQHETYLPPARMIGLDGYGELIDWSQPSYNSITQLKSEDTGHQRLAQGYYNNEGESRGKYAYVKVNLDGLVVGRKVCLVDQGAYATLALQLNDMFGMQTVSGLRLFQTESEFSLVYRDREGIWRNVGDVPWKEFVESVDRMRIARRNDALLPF
# T2: itself; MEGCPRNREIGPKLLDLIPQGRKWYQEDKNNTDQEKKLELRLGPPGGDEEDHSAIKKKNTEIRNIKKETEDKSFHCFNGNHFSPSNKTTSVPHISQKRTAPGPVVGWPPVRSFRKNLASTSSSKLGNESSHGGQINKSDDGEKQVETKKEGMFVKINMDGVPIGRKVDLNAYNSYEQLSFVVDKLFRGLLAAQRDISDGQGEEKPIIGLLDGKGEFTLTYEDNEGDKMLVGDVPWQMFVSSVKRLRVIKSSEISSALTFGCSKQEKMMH
# T3: itself; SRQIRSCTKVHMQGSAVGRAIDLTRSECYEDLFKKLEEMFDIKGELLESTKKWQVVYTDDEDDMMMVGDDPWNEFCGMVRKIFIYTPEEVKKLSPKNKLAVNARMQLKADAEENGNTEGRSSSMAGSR
# T4: itself; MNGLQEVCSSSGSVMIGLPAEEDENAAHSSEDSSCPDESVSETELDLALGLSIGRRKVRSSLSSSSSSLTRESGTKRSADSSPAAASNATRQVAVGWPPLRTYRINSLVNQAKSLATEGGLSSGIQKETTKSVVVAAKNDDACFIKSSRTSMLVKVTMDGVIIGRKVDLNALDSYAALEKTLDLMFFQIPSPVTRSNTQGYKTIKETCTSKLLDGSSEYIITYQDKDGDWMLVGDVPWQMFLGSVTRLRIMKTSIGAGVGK
# B1: IAA32 (Arabidopsis thaliana, UniProt Q8RYC6); chain MDPNTPADFFKGSSKFHTYYSQTKKGGGVIDLGLSLRTIQHETYLPPARMIGLDGYGELIDWSQPSYNSITQLKSEDTGHQRLAQGYYNNEGESRGKYAYVKVNLDGLVVGRKVCLVDQGAYATLALQLNDMFGMQTVSGLRLFQTESEFSLVYRDREGIWRNVGDVPWKEFVESVDRMRIARRNDALLPF
# B2: IAA26 (Arabidopsis thaliana, UniProt Q8LAL2); chain MEGCPRNREIGPKLLDLIPQGRKWYQEDKNNTDQEKKLELRLGPPGGDEEDHSAIKKKNTEIRNIKKETEDKSFHCFNGNHFSPSNKTTSVPHISQKRTAPGPVVGWPPVRSFRKNLASTSSSKLGNESSHGGQINKSDDGEKQVETKKEGMFVKINMDGVPIGRKVDLNAYNSYEQLSFVVDKLFRGLLAAQRDISDGQGEEKPIIGLLDGKGEFTLTYEDNEGDKMLVGDVPWQMFVSSVKRLRVIKSSEISSALTFGCSKQEKMMH
# B3: ARF1 538-665 (Arabidopsis thaliana, UniProt Q8L7G0); chain SRQIRSCTKVHMQGSAVGRAIDLTRSECYEDLFKKLEEMFDIKGELLESTKKWQVVYTDDEDDMMMVGDDPWNEFCGMVRKIFIYTPEEVKKLSPKNKLAVNARMQLKADAEENGNTEGRSSSMAGSR
# B4: IAA10 (Arabidopsis thaliana, UniProt Q38828); chain MNGLQEVCSSSGSVMIGLPAEEDENAAHSSEDSSCPDESVSETELDLALGLSIGRRKVRSSLSSSSSSLTRESGTKRSADSSPAAASNATRQVAVGWPPLRTYRINSLVNQAKSLATEGGLSSGIQKETTKSVVVAAKNDDACFIKSSRTSMLVKVTMDGVIIGRKVDLNALDSYAALEKTLDLMFFQIPSPVTRSNTQGYKTIKETCTSKLLDGSSEYIITYQDKDGDWMLVGDVPWQMFLGSVTRLRIMKTSIGAGVGK
Sequence,target or system,test,test system,setting,scale,quantity,value
B1 (IAA32),"T1, itself",two-hybrid,,,"relative to: out of 4 tests, higher = firmer interaction",positive tests,0
YWDQVTFFY,"HLA class I histocompatibility antigen, A alpha chain, allele A*25:01 (Homo sapiens, UniProt P04439)",peptide-MHC binding,peptide,concentration not given,,binding,inactive
B2 (IAA26),"T2, itself",two-hybrid,,,"relative to: out of 4 tests, higher = firmer interaction",positive tests,0
B3 (ARF1 538-665),"T3, itself",two-hybrid,,,"relative to: out of 4 tests, higher = firmer interaction",positive tests,0
B4 (IAA10),"T4, itself",two-hybrid,,,"relative to: out of 4 tests, higher = firmer interaction",positive tests,2
